Assay results collected from several papers.
Lines come from different studies, so protocols differ. ± gives the spread as reported.

O=C(O)C1CN(Cc2ccc(-c3noc(-c4ccc(OCC[18F])c(C(F)(F)F)c4)n3)cc2)C1
tissue uptake (male Sprague-Dawley rat, muscle; intravenous, 120 min): 0.135 ± 0.007 %ID/g

NC12CNCCNCC(NCc3ccc(CNC(=O)CCCC(=O)NCc4ccc(-c5nncnn5)cc4)cc3)(CNCCNC1)CNCCNC2.[64Cu+2]
tissue uptake (athymic nude mice SW1222 xenograft, spleen; 1 h post injection, 24 h accumulation interval, together with: huA33-TCO pretargeting): 0.98 ± 0.25 %ID/g

CC(C)[C@H](NC(=O)[C@@H]1CCCN1C(=O)[C@H](CCCNC(=N)N)NC(=O)[C@H](CS)NC(=O)[C@H](Cc1c[nH]c2ccccc12)NC(=O)[C@H](CCCNC(=N)N)NC(=O)[C@@H](Cc1ccccc1)NC(=O)[C@H](Cc1c[nH]cn1)NC(=O)[C@H](CCC(=O)O)NC(=O)[C@H](CS)NC(=O)[C@H](CS)NC(=O)CNC(=O)[C@@H]1CC(=O)N[C@@H](CCCNC(=N)N)C(=O)NCC(=O)N[C@@H](CC(=O)O)C(=O)N[C@H](Cc2ccc(O)cc2)C(=O)N1)C(N)=O [technetium-99m labelled]
tissue uptake (C57 mouse, female, B16/F1 melanoma, brain; intravenous, 0.037 MBq, 0.5 h): 0.16 ± 0.01 %ID/g

CCCC[C@@H]1NC(=O)[C@@H](NC(=O)[C@H](CCC(=O)O)NC(=O)CNC(=O)CN2CCN(CC(=O)O)CCN(CC(=O)O)CCN(CC(=O)O)CC2)CCCCNC(=O)C[C@@H](C(N)=O)NC(=O)[C@H](C(C)C)NC(=O)[C@@H]2CCCN2C(=O)[C@H](CCCNC(=N)N)NC(=O)CNC(=O)[C@H](Cc2c[nH]c3ccccc23)NC(=O)[C@H](CCCNC(=N)N)NC(=O)[C@@H](Cc2ccccc2)NC(=O)[C@H](Cc2c[nH]cn2)NC(=O)[C@H](CCC(=O)O)NC1=O [gallium-67 labelled]
tissue uptake (C57 mice with B16/F1 melanoma, muscle; intravenous, 0.037 MBq, 24 h): 0.09 ± 0.08 %ID/g

CCCC[C@H](NC(=O)CNC(=O)CNC(=O)CN1CCN(CC(=O)O)CCN(CC(=O)O)CCN(CC(=O)O)CC1)C(=O)N[C@H]1CC(=O)NCCCC[C@@H](C(N)=O)NC(=O)[C@H](Cc2c[nH]c3ccccc23)NC(=O)[C@H](CCCNC(=N)N)NC(=O)[C@@H](Cc2ccccc2)NC(=O)[C@H](Cc2c[nH]cn2)NC1=O [copper-64 labelled]
tissue uptake (C57 mouse B16/F1 melanoma, spleen; 0.5 h): 1.43 ± 0.58 %ID/g

CN(C)c1ccc(-c2nc3ccc(OCCCCCN4CCN5CCN(CC4)CC(=O)[O][Al]([18F])[O]C(=O)C5)cc3s2)cc1
tissue uptake (ICR mouse, lung; intravenous, 60 min): 1.12 ± 0.26 %ID/g

OCc1cn(Cc2ccc(-c3noc(-c4ccc(OCC[18F])c(C(F)(F)F)c4)n3)cc2)nn1
tissue uptake (female Lewis rat, muscle; intravenous, 60 min): 0.51 ± 0.02 %ID/g

CN1C(=O)[C@@H](Cc2ccc(O)c(I)c2)NC(=O)CNC(=O)[C@H](Cc2ccc3ccccc3c2)NC(=O)[C@H](CCCNC(=N)N)NC(=O)[C@H]1CCCNC(=O)c1ccc(CNC(=O)CN2CCN(CC(=O)O)CCN(CC(=O)O)CCN(CC(=O)O)CC2)cc1 [lutetium-177 labelled]
tissue uptake (item: 177Lu radioactivity; female CB-17 SCID mice, Daudi xenograft, skin; intravenous, 0.16 nmol per mouse, 1 h): 0.9 ± 0.5 %ID/g

CCCC[C@H](NC(=O)CNC(=O)CNC(=O)CN1CCN(CC(=O)O)CCN(CC(=O)O)CC1)C(=O)N[C@H]1CC(=O)NCCCC[C@@H](C(N)=O)NC(=O)[C@H](Cc2c[nH]c3ccccc23)NC(=O)[C@H](CCCNC(=N)N)NC(=O)[C@@H](Cc2ccccc2)NC(=O)[C@H](Cc2c[nH]cn2)NC1=O [gallium-67 labelled]
tissue uptake (female C57 mice, B16/F1 melanoma, heart; intravenous, 0.037 MBq, 24 h): 0.96 ± 0.39 %ID/g

CC(C)[C@H](NC(=O)[C@@H]1CCCN1C(=O)[C@H](CCCNC(=N)N)NC(=O)[C@H](CS)NC(=O)[C@H](Cc1c[nH]c2ccccc12)NC(=O)[C@H](CCCNC(=N)N)NC(=O)[C@@H](Cc1ccccc1)NC(=O)[C@H](Cc1c[nH]cn1)NC(=O)[C@H](CCC(=O)O)NC(=O)[C@H](CS)NC(=O)[C@H](CS)NC(=O)[C@@H]1CC(=O)N[C@@H](CCCNC(=N)N)C(=O)NCC(=O)N[C@@H](CC(=O)O)C(=O)N[C@H](Cc2ccc(O)cc2)C(=O)N1)C(N)=O [technetium-99m labelled]
tissue uptake (C57 mouse, female, B16/F1 melanoma, tumor; intravenous, 0.037 MBq, 24 h): 5.74 ± 1.22 %ID/g

CCCC[C@H](NC(=O)CNC(=O)CNC(=O)CN1CCN(CC(=O)O)CCN(CC(=O)O)CCN(CC(=O)O)CC1)C(=O)N[C@H]1CC(=O)NCCCC[C@@H](C(N)=O)NC(=O)[C@H](Cc2c[nH]c3ccccc23)NC(=O)[C@H](CCCNC(=N)N)NC(=O)[C@@H](Cc2ccccc2)NC(=O)[C@H](Cc2c[nH]cn2)NC1=O [lead-203 labelled]
tissue uptake (C57 mouse, blood; intravenous, 0.056 MBq, 2 h): 0.72 ± 0.12 %ID/g

O=C([O-])CN1CCN(CC(=O)[O-])CCN(CC(=O)NCCc2ccc3c(c2)C2C=CCC2C(c2cc4c(cc2Br)OCO4)N3)CCN(CC(=O)[O-])CC1.[111In+3] (stereo not drawn)
tissue uptake (mouse, Hec50 endometrial tumour, liver; 2 h post injection): 3.87 ± 0.41 %ID/g

A few entries again:
O=C([O-])CN1CCN(CC(=O)[O-])CCN(CC(=O)NCCc2ccc3c(c2)C2C=CCC2C(c2cc4c(cc2Br)OCO4)N3)CCN(CC(=O)[O-])CC1.[111In+3] (stereo not drawn)
tissue uptake (mouse, Hec50 endometrial tumour, liver; 2 h post injection): 3.87 ± 0.41 %ID/g
